Experimental data of several laboratories.
Every numbered part comes from another study and shows a few of its results, in no order. Changes are numbered by the printed parent chain.

Study 1
Target: RING finger protein unkempt homolog, zinc fingers 1-6, SBP tag (UNK, Homo sapiens, UniProt Q9C0B0, residues 30-357)
Chain of UniProt Q9C0B0 (30-357, looked up): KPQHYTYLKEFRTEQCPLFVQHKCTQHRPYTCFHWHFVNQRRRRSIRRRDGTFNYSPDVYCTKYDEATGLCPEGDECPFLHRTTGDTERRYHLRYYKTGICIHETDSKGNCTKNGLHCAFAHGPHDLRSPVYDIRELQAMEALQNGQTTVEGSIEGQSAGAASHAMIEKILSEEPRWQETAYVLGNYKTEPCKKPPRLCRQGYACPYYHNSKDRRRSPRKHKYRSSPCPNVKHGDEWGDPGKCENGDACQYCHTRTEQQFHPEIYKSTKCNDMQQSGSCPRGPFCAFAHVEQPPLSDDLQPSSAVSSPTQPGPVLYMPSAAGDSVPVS
Method: RNA Bind-n-Seq
Form: RNA
Matrix: in vitro
Concentration: 100 nM
Notes: RNA with constant flanks, vertebrate orthologous sites, ends assumed
Baseline: input RNA pool
Direction: higher = stronger binding
Strand	bound/input enrichment [ratio]
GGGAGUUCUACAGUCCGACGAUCGUUGUGAUCCCUUUAACAUGCACAGAAAGCUGUCAAAGAAAAACUUGCGUGCAAUUGACUUAGAUGACGCAACUUUUCUAAGUGCCAAGUUUGGAAGACAGUUUGUACCUGGCUGGAAACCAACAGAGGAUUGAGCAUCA	0.342
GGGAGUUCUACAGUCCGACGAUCGCUGUUGUGUAAAAUGUCUGCCCAGAGAAGUAUCACUCUAUAAAUAUUAAUCAAAUAGUUUACCUAUAGUCUUCUUAAGUAUUGAAUUAUAUGUCAAGCAUUUAAAGUGAGUUUGAGAUGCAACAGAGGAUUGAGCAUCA	0.516
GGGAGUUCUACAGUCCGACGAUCGUAAUGUGUUCUUAUUUAUUGAAAAUAGUUUGUGCUAAGGAUUGUGUUAGAUUUACAAAUUAGUGAAUUGAUUCCUCUUUGUUGUGUUGCUUUUAUUGUUGAAAAUAAAUAGAACUUUGACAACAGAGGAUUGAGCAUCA	1.27
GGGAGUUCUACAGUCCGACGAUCUACAUCUGGUGACAUAUGGCCUGGCCUUUCAGCUUAUGAUAACAGUCCUAGAUCUCCCCAUAGUCCUUCACCAAUUGCUACACCACCUAGUCAGAGUUCAUCUUGCUCUGAUGCACCCAUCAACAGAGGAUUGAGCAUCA	1.21
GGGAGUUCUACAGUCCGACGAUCUGUGGAGGAGGAACCCGCUUACCGCUGCCCGCAUGCAACUGAGGGCCGCUCACCAGCCUGCAGGAGGCCAUAGUAUUUUUUUUCUGCCUCAGAGUCCCCAAAGCCUUCAAGCAGAAGUGGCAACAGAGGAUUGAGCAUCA	1.8
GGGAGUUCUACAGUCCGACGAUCUGUUAGUUAUUGAUGGACUCUAUUUUUUUAUUAUUACUUGGACCUUGGUCGUUUUUAUACUAGCAAAAUGUCUUGUUUUAAUUUGUGUUUUUUGGGGAGGGAGGGAGUGAACUUGCUGAUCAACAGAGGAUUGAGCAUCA	1.87
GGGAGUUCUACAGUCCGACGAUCUCAUCUCAUUUUAUAUGUCCAAAAAAGGUUUUGAAUUUUUAAACACUUGCUAGUUUUAGUUAGCUCUGCCCUCAUGAAGUAUUACUAUAAUUCAUCACAAACAGAUAUCUGUCUGAAUUACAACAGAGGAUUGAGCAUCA	0.658
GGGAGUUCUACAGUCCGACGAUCUCCUCAACUUGUUCUAGCUUGUGAUCCUUCAAAGUUGGGUCAGGCAUUAGUGCUAGAUACUAGAAAUUUUCAUUUCCCUGUUGUUAUUGAUCAGCGGGACAGGCAUUAAUUAAAAACAGACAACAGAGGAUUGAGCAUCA	0.875
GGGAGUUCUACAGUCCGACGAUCAAAUUUACUUCAUGCCUUGGACUCCAUAUAGGACAGACACUCUGAUCGAGUACUCCUCCCUGGAUGACUUCCAAAACGGCCGGCAAACCAUCACCUACAAGCUUCCUCACCGGGUAGAUGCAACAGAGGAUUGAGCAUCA	0.512
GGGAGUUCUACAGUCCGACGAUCAAGAUGGUGGUUGUACAUUAUUUCACUUAGAAAAUAUGAAAACUCAUUUUGUUUUGAAGCUAGGUGUUAAACUGGAAUAGCUAUUACGUUCUUGAAAAUGGGGCAGUUGUGCCCUACCCUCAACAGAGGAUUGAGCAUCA	1.02
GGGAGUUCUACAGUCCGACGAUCAUCAGUAGAAUUACAUAAUACUAAAGAUACAGUUGAAAGGAUAUUCCACGUAUGUGUUGUAGUUACUAAAAGAAUUAUAGCUGUUAUUGCCUUGUAUUUAUAACCCUUGUUGCAGGUUUCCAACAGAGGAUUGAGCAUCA	0.857

Study 2
Target: CCND1, cyclin fold, Cln2 fusion (human)
Method: yeast growth competition, sequencing
Matrix: yeast
Notes: weak parent motif
Baseline: not given
Direction: higher = stronger binding
Starting sequence: MASTL docking peptide (human); PMIAKNLMCELDE
Substitution	normalised enrichment score
A4Y	0.15
K5Q	0.258
N6W	0.0646
E10F	0.00939
E10R	0.0874
A4R	0.0528
E10I	0.183
A4Q	-0.216
I3L	0.174
C9S	0.21

Study 3
Target: Interferon regulatory factor 5, full length, phosphomimetic (IRF5, Homo sapiens, UniProt Q13568-2, residues 1-514, K96S/S451D/S453D/S456D/S462D)
Method: protein-binding microarray
Form: double-stranded DNA, one strand shown
Matrix: in vitro
Concentration: 250 nM
Notes: 60-bp whole probe
Added: salmon DNA 0.4 mg/ml
Baseline: random background probes
Direction: higher = stronger binding
All sequences stand within: GCCTAGCAC … GTCTTGATTCGCTTGACGCTGCTG
Strand	log fluorescence [z-score]
TTAGGACTGGGGTATCGGATAGTGCTA	0.334
TTAGGTTTCGGTCTCGGTTAGTGCTAG	10.4
GACTATTTCAGACTGGAGACGTGCTAG	0.0594
GACGATTTCAGTCTCGAGATGTGCTAG	1.27
AGTCGTGAGCCGCACAGTGGGTGCTAG	-0.747
TTAGGTATCGGTACTGGGTTAGTGCTA	5.93
TTAGGTTTCGACTAACGGTTAGTGCTA	8.14
TCTAATATTCATTTTATTCAGTGCTAG	1.15
GCCAAACACCCACATTCACCGTGCTAG	-0.0937
TCAGGTTTTTTTTTAATACTGTGCTAG	0.48
GATGGTCTCGGACTGGGGACGTGCTAG	-0.218
GACGGTTCCGGTATCGGGACGTGCTAG	1.77
TTAGAGATCAGTCTCGATTAGTGCTAG	0.954
GACGGTTTCGGCTATCGGGACGTGCTA	7.53
GACGGTTTCGACACTGTGGACGTGCTA	4.21
TTAGGACTGGGGACAGGGTTAGTGCTA	-0.223
CTAGAACTGAGTATCGATTAGTGCTAG	7.05

Single results of other studies
Molecule	target	test	test system	conditions	scale	endpoint	value
PhoQ, residues 284 288 289 292 302 303 SSTMSV	PhoP, residues 12 14 15 18 19 TPLRH (Escherichia coli, UniProt P23836)	Sort-seq, item: YFP reporter	E. coli	PhoQ-PhoP variant library, added: 10 µM Mg2+	baseline: high Mg2+ state, higher = stronger signaling	fold induction	0.726

Repeated from above (study 1):
Strand	bound/input enrichment [ratio]
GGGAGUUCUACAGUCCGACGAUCAAGAUGGUGGUUGUACAUUAUUUCACUUAGAAAAUAUGAAAACUCAUUUUGUUUUGAAGCUAGGUGUUAAACUGGAAUAGCUAUUACGUUCUUGAAAAUGGGGCAGUUGUGCCCUACCCUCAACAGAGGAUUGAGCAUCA	1.02
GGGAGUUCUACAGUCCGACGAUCGCUGUUGUGUAAAAUGUCUGCCCAGAGAAGUAUCACUCUAUAAAUAUUAAUCAAAUAGUUUACCUAUAGUCUUCUUAAGUAUUGAAUUAUAUGUCAAGCAUUUAAAGUGAGUUUGAGAUGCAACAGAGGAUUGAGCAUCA	0.516
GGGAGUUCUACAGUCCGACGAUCUCCUCAACUUGUUCUAGCUUGUGAUCCUUCAAAGUUGGGUCAGGCAUUAGUGCUAGAUACUAGAAAUUUUCAUUUCCCUGUUGUUAUUGAUCAGCGGGACAGGCAUUAAUUAAAAACAGACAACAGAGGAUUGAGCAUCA	0.875
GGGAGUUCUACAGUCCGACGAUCUGUGGAGGAGGAACCCGCUUACCGCUGCCCGCAUGCAACUGAGGGCCGCUCACCAGCCUGCAGGAGGCCAUAGUAUUUUUUUUCUGCCUCAGAGUCCCCAAAGCCUUCAAGCAGAAGUGGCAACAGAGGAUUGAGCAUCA	1.8
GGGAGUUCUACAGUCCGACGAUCAAAUUUACUUCAUGCCUUGGACUCCAUAUAGGACAGACACUCUGAUCGAGUACUCCUCCCUGGAUGACUUCCAAAACGGCCGGCAAACCAUCACCUACAAGCUUCCUCACCGGGUAGAUGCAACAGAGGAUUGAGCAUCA	0.512
